Assay results collected from several papers.
Several values in a cell are separate wells, animals, samples, runs or records.
BRSK2: Serine/threonine-protein kinase BRSK2 (BRSK2, Homo sapiens, UniProt Q8IWQ3)

SMILES | tested on | test | test system | setting | how to read | endpoint | value
CN1CCN(Cc2ccc(-c3ccc(CO[C@H]4CCC[C@@H]4NC(=O)c4cc(-c5cnn(C)c5)cnc4N)cc3)cc2)CC1 | BRSK2 | enzyme activity, inhibitor |  | 0.1 µM |  | inhibition | -2%
COc1cc(Nc2nc(C)cc(-c3cnn4nc(OC)ccc34)n2)cc(C(F)(F)F)c1 | BRSK2 | inhibitor |  | 1 µM | reference: control | remaining activity | 94%
Nc1nc(Nc2ccccc2)sc1C(=O)c1ccccc1 | BRSK2 | enzyme activity, inhibitor |  | 10 µM |  | remaining activity | 42%
COc1c(Cl)cccc1Nc1c(-c2ccncc2C#C[C@@]2(C)CCCN2C(=O)/C=C/CN(C)C)[nH]c2c1C(=O)NCC2 | BRSK2 | binding, competition with immobilised ligand |  | 3 µM |  | remaining binding | 90%
Cc1cccc(O[C@H]2CCC[C@@H](C(C)CNCc3ccncc3)C2)c1 (relative stereo) | BRSK2 | enzyme activity, inhibitor |  | 1 µM |  | inhibition | 0%
C=CC(=O)Nc1cccc(-c2cnc3[nH]cc(C(=O)NC(C)(C)C)c3n2)c1 | BRSK2 | enzyme activity, inhibitor |  | 0.1 µM |  | inhibition | 36%
Cc1cccc(-c2ccc3nc(NC(=O)C4CCOCC4)nn3c2)c1 | BRSK2 | enzyme activity, Dundee kinase panel |  | 10 µM |  | remaining activity | 67%
Nc1ncc(-c2cc(-c3cnn(CC(F)(F)F)c3)ncc2F)nc1C(=O)NC1CNCC(F)C1 (centres unmarked) | BRSK2 | enzyme activity |  | 1 µM | reference: DMSO control | remaining activity | 66.5%
C1CCC(OCCN2CCN(CCOC3CCCCC3)CC2)CC1 | Trypanosoma cruzi | reporter mRNA translation, inhibitor, measured: Renilla luciferase mRNA | cell-free extract | concentration not given, test 2 | reference: positive over negative control | translation activity | 120% and 97%
CNC1C[S+]2CC[S+]3CC[S+](C1)[Ru-4]321([N]=C=S)[n]2c3ccc(OC)cc3c3c4c(c5cc(F)c[n+]1c5c32)C(=O)NC4=O (centres unmarked) | BRSK2 | KinomeScan |  | 0.1 µM | reference: untreated | remaining binding | 62%
Cc1cccc(-c2ccc3nc(NC(=O)C4CCCO4)nn3c2)c1 (centres unmarked) | BRSK2 | enzyme activity, Dundee kinase panel |  | 10 µM |  | remaining activity | 71%
CCN(CC)CCCCCCNc1cc(OC)cc2c(C)ccnc12.Cc1ccc(S(=O)(=O)O)cc1 | Trypanosoma cruzi | reporter mRNA translation, inhibitor, measured: capped polyadenylated Renilla luciferase mRNA | cell-free extract | concentration not given | reference: control RNA | relative translation | 125%
C=CC(=O)N1CCCC(n2c(=O)c3ncccc3n(Cc3ccc(Oc4ccccc4)cc3)c2=O)C1 (centres unmarked) | BRSK2 | cell-free assay, competition with immobilised ligand |  | 1 µM |  | remaining binding | 98%
COc1ccc(O)cc1-c1c[nH]c2ncc(-c3cncc(C(=O)N(C)C)c3)cc12 | BRSK2 | binding, competition with immobilised ligand |  | 0.2 µM |  | inhibition | -4.25%
CCn1cc(C(=O)O)c(=O)c2c(N)c(F)c(NC3CCCCC3)cc21 | BRSK2 | kinase activity |  | 0.1 µM, added: ATP at Km |  | inhibition | 7.7%
C=CC(=O)N1Cc2nc(-c3cc(-c4cc(Cl)cnc4Cl)c(F)cc3F)n(-c3ccncn3)c2C1 | BRSK2 | cell-free assay, inhibitor |  | 1 µM |  | inhibition | -6.9%
CN1CC[C@@H](COc2cnc(C#N)cc2-c2ccn3nc(NC(=O)C4CC4)cc3c2)C1 | BRSK2 | enzyme activity, inhibitor |  | 1 µM |  | inhibition | 5%
NC(=O)C[C@H]1CCc2sc3ncnc(O[C@H]4CC[C@H](N5CCOCC5)CC4)c3c21 | BRSK2 | enzyme activity, inhibitor |  | 10 µM |  | inhibition | 2%
CNC(=O)C1CCN(c2cc(C)c(F)cc2NC(=O)c2ccc(-c3cc(O)ccc3C)c(C)c2)CC1 | BRSK2 | binding, competition with immobilised ligand |  | 1 µM |  | remaining binding | 94%
Nc1ncc2c(n1)-c1c([nH]c3ccc(C4=CCOCC4)cc13)CCC2 | BRSK2 | binding, competition with immobilised ligand |  | 1 µM |  | remaining binding | 100%

A few entries again:
SMILES | tested on | test | test system | setting | how to read | endpoint | value
COc1ccc(O)cc1-c1c[nH]c2ncc(-c3cncc(C(=O)N(C)C)c3)cc12 | BRSK2 | binding, competition with immobilised ligand |  | 0.2 µM |  | inhibition | -4.25%
CCn1cc(C(=O)O)c(=O)c2c(N)c(F)c(NC3CCCCC3)cc21 | BRSK2 | kinase activity |  | 0.1 µM, added: ATP at Km |  | inhibition | 7.7%
